Published values gathered from unrelated publications.
Every numbered part comes from another study and shows a few of its results, in no order. Values joined by “and” are separate records of one study, mostly repeats; a detail may differ. Converted amounts (≈) assume the structure as drawn.

Series 1
Compound: O=C1CC[C@@H](Nc2ccc(N3CCNCC3)c(F)c2)C(=O)N1
Target: Protein cereblon (CRBN, Homo sapiens, UniProt Q96SW2)
Chain of UniProt Q96SW2 (whole entry, looked up): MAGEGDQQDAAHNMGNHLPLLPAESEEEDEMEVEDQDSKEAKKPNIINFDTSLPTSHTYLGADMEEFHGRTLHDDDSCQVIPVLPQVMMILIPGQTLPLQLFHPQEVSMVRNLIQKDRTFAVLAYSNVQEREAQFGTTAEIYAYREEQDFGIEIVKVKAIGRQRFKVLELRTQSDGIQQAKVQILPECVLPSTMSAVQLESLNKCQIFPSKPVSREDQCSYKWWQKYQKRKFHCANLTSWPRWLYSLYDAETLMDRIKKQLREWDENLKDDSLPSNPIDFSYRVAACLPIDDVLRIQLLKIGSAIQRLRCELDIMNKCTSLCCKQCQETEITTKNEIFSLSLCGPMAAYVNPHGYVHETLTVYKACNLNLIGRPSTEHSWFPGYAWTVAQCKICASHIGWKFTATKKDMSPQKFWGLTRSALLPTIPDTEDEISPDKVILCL
Effect on: binding
setting	inhibition
10000 nM	97.9% and 94.9%
3333.33 nM	85.7% and 81.9%
30000 nM	99.2% and 81.6%

Series 2
Compound: C=CCN1C(=O)C(O)(C(=O)O)Oc2cc(F)ccc21 (stereo not shown)
Organism: Arabidopsis thaliana
Strain: Col-0
setting	hypocotyl length
12.5 µg/mL, seed germination, single repetition	1.84 cm and 1.83 cm and 1.85 cm and 1.81 cm and 1.8 cm
25 µg/mL, seed germination, single repetition	1.78 cm and 1.67 cm and 1.71 cm and 1.69 cm and 1.65 cm
6.25 µg/mL, seed germination, repetition mean	2.05 cm
100 µg/mL, seed germination, repetition mean	1.35 cm
25 µg/mL, seed germination, repetition mean	1.71 cm
3.125 µg/mL, seed germination, single repetition	2.09 cm and 2.08 cm and 2.1 cm
100 µg/mL, seed germination, single repetition	1.38 cm and 1.31 cm and 1.36 cm and 1.32 cm
3.125 µg/mL, seed germination, repetition mean	2.08 cm
50 µg/mL, seed germination, repetition mean	1.55 cm

Series 3
Compound: Cn1cc(-c2cccc(CN3CCC4(CC3)COc3c4ccc4c3CN([C@H]3CCC(=O)NC3=O)C4=O)c2)cn1
Mode: degrader
CRBN/Zinc finger protein Helios: CRBN/Zinc finger protein Helios (Homo sapiens, UniProt Q96SW2+Q9UKS7)
Chain of UniProt Q9UKS7 (whole entry, looked up): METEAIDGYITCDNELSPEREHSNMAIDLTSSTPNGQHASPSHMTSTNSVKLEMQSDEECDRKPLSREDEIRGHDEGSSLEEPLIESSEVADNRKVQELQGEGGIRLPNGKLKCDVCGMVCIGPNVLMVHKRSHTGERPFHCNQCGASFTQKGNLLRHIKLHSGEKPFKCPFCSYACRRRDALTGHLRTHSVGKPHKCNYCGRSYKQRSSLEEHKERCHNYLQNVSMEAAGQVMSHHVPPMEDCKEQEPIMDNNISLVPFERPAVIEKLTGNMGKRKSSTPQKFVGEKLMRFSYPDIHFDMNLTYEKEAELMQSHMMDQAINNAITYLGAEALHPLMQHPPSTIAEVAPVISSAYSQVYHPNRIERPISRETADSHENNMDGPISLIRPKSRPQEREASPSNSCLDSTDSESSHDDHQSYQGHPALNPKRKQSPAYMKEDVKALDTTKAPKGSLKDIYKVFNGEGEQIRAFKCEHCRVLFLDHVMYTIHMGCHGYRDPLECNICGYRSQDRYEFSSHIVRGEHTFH
Ikzf2/Crbn I391V: Ikzf2/Crbn (Mus musculus, UniProt P81183+Q8C7D2, I391V)
Chain of UniProt Q8C7D2 (whole entry, unmodified, looked up): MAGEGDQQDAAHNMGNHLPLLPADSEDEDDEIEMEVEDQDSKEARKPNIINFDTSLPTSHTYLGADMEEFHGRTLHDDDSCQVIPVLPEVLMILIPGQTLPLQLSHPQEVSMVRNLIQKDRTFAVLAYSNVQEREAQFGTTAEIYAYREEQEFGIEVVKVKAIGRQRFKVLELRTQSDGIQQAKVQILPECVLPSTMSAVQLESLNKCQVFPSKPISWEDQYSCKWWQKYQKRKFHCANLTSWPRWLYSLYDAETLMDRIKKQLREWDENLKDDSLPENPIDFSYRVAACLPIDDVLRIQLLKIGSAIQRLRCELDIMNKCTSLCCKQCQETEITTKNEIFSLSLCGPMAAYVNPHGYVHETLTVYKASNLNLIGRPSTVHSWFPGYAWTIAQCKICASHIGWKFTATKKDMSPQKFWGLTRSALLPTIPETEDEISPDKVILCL
Chain of UniProt P81183 (whole entry, unmodified, looked up): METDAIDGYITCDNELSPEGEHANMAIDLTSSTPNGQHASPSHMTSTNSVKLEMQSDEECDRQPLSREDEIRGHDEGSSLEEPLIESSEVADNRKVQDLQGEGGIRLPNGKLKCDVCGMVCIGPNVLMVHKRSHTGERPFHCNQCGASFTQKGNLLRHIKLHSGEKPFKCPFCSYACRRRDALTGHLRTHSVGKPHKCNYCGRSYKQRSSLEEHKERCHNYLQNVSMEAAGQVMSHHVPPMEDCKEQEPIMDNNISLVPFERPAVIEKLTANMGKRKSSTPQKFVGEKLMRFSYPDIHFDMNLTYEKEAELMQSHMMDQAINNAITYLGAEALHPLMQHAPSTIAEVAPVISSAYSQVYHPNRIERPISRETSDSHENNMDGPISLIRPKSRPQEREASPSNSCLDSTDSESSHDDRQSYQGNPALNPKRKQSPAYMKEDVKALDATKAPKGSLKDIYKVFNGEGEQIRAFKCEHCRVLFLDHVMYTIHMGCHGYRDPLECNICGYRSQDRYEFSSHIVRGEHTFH
target	test	system	setting	protein remaining
CRBN/Zinc finger protein Helios	HiBiT	HEK293	0.05081 nM	97.3% and 92.7%
CRBN/Zinc finger protein Helios	HiBiT	HEK293	111.1 nM, 1 h	46.9% and 47%
CRBN/Zinc finger protein Helios	HiBiT	HEK293	111.1 nM, 3 h	14.7% and 17.3%
CRBN/Zinc finger protein Helios	HiBiT	HEK293	1.372 nM, 3 h	45.8% and 47.4%
CRBN/Zinc finger protein Helios	HiBiT	HEK293	0.1524 nM	93.6% and 91.5%
CRBN/Zinc finger protein Helios	HiBiT	HEK293	0.1524 nM, 3 h	76.6% and 80.1%
CRBN/Zinc finger protein Helios	HiBiT	HEK293	0.4572 nM, 1 h	86.3% and 77.7%
Ikzf2/Crbn I391V		Crbn I391V mouse, thymus	10 mg/kg, 6 h	55% and 28% and 38% and 31%
CRBN/Zinc finger protein Helios	HiBiT	HEK293	0.1524 nM, 6 h	74.7% and 72%
Ikzf2/Crbn I391V		Crbn I391V mouse, spleen	10 mg/kg, 24 h	39% and 35% and 32% and 33%
CRBN/Zinc finger protein Helios	HiBiT	HEK293	1.372 nM, 6 h	34.2% and 35.8%

Series 4
Compound: CCCCC[C@@H]1CC(=O)N[C@@H](C(C)C)C(=O)N[C@H](CCCNC(=N)N)C(=O)N[C@@H](C(C)C)C(=O)NCC(=O)N2CCC[C@H]2C(=O)N[C@@H](CC(C)C)C(=O)N[C@H](CCCNC(=N)N)C(=O)N[C@@H](CCC(=O)O)C(=O)N[C@H](Cc2ccc(O)cc2)C(=O)N[C@H](Cc2c[nH]c3ccccc23)C(=O)NCCCC(=O)O1
Organism: Staphylococcus aureus
Strain: USA300
setting	MIC
added: menaquinone 2 µg/mL	8 µg/mL (≈ 5.39 µM)
added: menaquinone 0 µg/mL	1 µg/mL (≈ 0.674 µM)
added: menaquinone 0.25 µg/mL	2 µg/mL (≈ 1.35 µM)
added: ubiquinone 0 µg/mL	1 µg/mL (≈ 0.674 µM)
added: menaquinone 0.0625 µg/mL	1 µg/mL (≈ 0.674 µM)
added: menaquinone 64 µg/mL	> 64 µg/mL
added: menaquinone 8 µg/mL	32 µg/mL (≈ 21.6 µM)
added: ubiquinone 4 µg/mL	1 µg/mL (≈ 0.674 µM)

Excerpt of the above (series 1):
setting	inhibition
30000 nM	99.2% and 81.6%
10000 nM	97.9% and 94.9%
3333.33 nM	85.7% and 81.9%
